Measured values gathered from unrelated publications.
Lines come from different studies, so protocols differ. ± marks the error that the study gave.
UCHL1: Ubiquitin carboxyl-terminal hydrolase isozyme L1 (UCHL1, Homo sapiens, UniProt P09936)
Chain of UniProt P09936 (whole entry, looked up): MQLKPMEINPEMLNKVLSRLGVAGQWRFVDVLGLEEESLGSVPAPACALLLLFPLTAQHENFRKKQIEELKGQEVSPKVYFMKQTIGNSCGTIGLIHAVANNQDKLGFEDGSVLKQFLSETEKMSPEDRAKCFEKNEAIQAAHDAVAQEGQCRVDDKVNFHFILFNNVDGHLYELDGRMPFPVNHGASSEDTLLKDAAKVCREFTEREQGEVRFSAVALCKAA

CCOCc1nc(O)c(-c2nnc(Cc3ccc(Cl)cn3)o2)c(O)c1-c1c(OC)cccc1OC
plasma concentration (anaesthetised rat, plasma; intravenous infusion, 10 µg/kg/min, 15 min): 1550 ± 48 nM

C/C=C/C[C@H](C)[C@@H](OC)[C@@H](C)[C@H](O)C[C@H]1OC(=O)C=C[C@H]1CC
plasma protein binding (rat): 93%

CC#CC(=O)NC1CCN(S(=O)(=O)c2ccc(C)cc2)C1 (stereo not shown)
labelling (UCHL1; covalent, intact protein LC-MS; 12.5 µM): 16.1%

Cc1cnc(N2CC3(CCOCC3)C2)c(C(=O)Nc2ccc(C(=O)N3CCc4cc(C(=O)Nc5c(C)cccc5F)sc4-c4ccccc43)cc2)c1
plasma clearance (rat; intravenous, 0.1 mg/kg; relative to: hepatic blood flow): ~50%

COc1cccc(-c2n[nH]c(SCc3ccccn3)n2)c1OC
plasma concentration (Sprague-Dawley rats, both sexes; oral dietary, 30 mg/kg/day, day 7, 1 h): 589 ng/mL

CC(C)c1nc(N(C)S(C)(=O)=O)nc(-c2ccc(F)cc2)c1/C=C/[C@@H](O)C[C@@H](O)CC(=O)O
plasma concentration (Wistar albino rat, both sexes, plasma; oral, 20 mg/kg, 2 h): 653 ng/mL

Cc1cc(C(=O)NC(C)(C)COc2cccc3c2C(N)=NS(=O)(=O)N3)cc(C)n1
plasma peak area (LC-MS metabolite profiling; Sprague-Dawley rat, both sexes, plasma; oral, 100 mg/kg of parent drug, 0.5 (unit not given); higher = more metabolite): 2.86e+06 a.u.

COc1cc(F)c([C@@H]2CNC(=O)[C@H]2NC(=O)Nc2ccccc2)c(F)c1
plasma concentration (Sprague-Dawley rats, LPS challenge, plasma; oral, 1 mg/kg, 3 h post dose): 146 ± 42 nM

O=C(CCl)Nc1cc(-c2ccccc2)nn1-c1ccccc1
labelling (UCHL1; covalent, intact protein LC-MS; 12.5 µM): 12.4%

O=C1c2ccncc2C(=O)c2c1[nH]c1ccccc21
plasma clearance (Sprague-Dawley rat, male, plasma; intravenous, 5 mg/kg): 39.8 ± 22.2 mL/min
